Experimental data of several laboratories.
Every numbered part comes from another study and shows a few of its results, in no order.
UniProt Q59H18, sequence (whole entry, looked up): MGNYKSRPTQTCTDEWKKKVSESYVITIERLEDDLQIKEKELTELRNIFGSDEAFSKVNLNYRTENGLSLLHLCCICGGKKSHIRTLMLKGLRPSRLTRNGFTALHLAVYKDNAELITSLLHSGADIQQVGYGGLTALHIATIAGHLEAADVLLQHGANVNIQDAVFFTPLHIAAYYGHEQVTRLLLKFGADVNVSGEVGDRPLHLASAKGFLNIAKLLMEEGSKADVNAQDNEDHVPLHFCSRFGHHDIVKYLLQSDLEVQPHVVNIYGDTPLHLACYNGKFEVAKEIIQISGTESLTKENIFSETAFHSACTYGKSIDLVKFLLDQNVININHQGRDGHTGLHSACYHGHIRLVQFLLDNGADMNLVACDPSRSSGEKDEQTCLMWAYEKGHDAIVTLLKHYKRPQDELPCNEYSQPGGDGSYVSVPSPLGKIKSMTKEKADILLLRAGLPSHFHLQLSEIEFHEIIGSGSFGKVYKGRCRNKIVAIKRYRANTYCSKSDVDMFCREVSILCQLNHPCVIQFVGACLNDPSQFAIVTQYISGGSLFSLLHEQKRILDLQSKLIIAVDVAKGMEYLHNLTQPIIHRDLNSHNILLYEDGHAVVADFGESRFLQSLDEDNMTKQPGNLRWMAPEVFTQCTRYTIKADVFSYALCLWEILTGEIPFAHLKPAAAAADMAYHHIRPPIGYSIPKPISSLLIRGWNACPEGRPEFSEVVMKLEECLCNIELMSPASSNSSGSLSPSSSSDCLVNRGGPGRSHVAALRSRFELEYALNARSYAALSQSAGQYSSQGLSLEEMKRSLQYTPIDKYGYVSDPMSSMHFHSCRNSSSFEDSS
UniProt P52333, sequence (whole entry, looked up): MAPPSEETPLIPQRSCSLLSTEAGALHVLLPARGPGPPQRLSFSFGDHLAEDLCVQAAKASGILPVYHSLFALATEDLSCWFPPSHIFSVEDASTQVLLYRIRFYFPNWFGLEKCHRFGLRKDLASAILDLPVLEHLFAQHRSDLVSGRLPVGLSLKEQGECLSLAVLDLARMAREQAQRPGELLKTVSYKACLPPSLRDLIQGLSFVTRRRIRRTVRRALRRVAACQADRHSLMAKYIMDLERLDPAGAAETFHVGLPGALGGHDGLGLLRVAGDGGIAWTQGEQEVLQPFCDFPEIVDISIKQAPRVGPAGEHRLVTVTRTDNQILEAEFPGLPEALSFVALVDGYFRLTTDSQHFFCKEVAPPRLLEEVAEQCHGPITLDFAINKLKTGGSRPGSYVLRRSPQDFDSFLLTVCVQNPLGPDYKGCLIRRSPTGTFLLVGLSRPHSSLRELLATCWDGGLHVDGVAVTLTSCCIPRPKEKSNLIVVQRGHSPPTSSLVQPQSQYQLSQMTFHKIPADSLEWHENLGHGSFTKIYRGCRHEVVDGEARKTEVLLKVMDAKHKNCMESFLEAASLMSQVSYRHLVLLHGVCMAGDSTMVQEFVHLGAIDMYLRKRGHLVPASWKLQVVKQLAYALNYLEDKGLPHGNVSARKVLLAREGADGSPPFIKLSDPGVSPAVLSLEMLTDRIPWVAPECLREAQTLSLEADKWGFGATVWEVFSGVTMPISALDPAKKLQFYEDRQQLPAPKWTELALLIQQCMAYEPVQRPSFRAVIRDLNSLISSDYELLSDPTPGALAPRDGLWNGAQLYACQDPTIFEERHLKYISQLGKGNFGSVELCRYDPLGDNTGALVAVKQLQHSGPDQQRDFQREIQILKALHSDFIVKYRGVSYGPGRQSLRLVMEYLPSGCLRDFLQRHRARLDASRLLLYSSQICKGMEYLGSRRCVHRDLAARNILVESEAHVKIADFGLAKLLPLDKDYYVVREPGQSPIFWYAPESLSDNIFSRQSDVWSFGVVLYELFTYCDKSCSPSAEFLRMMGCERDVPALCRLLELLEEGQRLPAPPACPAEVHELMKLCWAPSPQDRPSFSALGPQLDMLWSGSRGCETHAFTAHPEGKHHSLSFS
UniProt Q96PY6, sequence (whole entry, looked up): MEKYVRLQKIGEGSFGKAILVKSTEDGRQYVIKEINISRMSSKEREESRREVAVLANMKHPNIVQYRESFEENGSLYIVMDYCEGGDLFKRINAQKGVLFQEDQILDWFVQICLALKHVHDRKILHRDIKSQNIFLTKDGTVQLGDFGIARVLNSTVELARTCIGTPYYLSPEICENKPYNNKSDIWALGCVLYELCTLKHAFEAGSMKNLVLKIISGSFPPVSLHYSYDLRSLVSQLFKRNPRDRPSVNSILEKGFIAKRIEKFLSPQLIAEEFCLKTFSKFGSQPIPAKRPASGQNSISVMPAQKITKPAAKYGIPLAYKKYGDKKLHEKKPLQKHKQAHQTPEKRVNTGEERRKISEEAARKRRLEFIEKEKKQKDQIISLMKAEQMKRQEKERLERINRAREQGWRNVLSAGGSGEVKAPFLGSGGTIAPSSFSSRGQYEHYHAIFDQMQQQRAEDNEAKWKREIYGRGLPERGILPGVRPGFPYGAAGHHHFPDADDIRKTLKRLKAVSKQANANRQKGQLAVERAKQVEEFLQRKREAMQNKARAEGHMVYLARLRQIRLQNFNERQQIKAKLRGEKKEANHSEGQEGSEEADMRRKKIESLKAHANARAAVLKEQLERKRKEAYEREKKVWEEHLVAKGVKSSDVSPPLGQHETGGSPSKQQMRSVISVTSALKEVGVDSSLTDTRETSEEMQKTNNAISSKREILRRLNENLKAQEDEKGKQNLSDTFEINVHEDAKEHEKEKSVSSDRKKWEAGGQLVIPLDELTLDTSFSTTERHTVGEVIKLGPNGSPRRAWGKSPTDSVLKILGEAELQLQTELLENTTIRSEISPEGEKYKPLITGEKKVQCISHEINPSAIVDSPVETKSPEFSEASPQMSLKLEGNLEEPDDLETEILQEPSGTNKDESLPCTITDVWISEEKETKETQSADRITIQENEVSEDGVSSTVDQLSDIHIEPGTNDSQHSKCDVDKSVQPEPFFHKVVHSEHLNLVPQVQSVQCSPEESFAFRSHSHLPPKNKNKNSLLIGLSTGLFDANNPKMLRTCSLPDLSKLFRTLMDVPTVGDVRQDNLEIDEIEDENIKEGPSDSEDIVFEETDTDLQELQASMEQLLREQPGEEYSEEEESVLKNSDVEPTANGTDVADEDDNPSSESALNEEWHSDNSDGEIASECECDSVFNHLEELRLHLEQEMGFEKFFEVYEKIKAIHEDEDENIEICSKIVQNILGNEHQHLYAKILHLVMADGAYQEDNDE
UniProt Q15831, sequence (whole entry, looked up): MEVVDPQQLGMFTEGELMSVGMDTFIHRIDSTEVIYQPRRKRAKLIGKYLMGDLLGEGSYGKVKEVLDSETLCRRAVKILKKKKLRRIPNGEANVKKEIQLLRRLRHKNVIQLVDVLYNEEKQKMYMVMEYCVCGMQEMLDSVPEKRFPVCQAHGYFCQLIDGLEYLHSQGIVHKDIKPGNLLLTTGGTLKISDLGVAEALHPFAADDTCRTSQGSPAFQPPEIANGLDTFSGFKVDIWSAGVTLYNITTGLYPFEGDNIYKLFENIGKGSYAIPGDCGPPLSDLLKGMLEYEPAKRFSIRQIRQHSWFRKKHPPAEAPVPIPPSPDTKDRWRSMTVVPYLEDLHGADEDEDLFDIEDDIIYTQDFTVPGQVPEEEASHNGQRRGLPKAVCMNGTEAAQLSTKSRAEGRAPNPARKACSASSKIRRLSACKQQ
UniProt P49137, sequence (whole entry, looked up): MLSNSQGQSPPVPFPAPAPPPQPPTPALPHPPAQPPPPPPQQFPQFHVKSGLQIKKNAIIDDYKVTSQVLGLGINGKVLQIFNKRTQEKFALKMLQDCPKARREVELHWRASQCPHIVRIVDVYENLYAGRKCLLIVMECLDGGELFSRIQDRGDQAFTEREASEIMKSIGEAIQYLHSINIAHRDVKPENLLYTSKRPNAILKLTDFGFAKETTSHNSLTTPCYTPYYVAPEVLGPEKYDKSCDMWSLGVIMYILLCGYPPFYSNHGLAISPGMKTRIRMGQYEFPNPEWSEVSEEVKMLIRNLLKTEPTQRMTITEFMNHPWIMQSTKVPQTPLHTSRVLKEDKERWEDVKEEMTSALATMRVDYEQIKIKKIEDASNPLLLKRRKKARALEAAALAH
UniProt P11802, sequence (whole entry, looked up): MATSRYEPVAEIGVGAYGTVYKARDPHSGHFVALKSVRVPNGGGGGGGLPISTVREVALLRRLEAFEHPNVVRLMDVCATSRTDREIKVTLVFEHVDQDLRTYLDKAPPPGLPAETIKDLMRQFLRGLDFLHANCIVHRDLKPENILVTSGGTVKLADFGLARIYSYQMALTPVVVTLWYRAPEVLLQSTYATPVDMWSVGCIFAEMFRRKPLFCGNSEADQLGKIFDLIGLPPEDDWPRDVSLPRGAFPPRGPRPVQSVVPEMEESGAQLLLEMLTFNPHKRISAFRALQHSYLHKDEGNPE
UniProt Q9HC98, sequence (whole entry, looked up): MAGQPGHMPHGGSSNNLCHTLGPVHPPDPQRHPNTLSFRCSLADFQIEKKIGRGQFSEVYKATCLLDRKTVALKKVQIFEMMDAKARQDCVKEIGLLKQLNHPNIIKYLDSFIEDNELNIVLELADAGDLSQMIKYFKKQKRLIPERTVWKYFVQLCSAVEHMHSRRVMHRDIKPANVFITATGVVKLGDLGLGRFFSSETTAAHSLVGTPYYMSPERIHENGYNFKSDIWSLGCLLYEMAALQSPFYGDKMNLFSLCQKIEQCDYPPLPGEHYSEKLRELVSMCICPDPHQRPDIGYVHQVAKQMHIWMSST

Sample 1 — effect on: enzyme activity; action: inhibitor; concentration: 0.5 µM; reference: control
Structure (SMILES): CN1CCN(c2ccc3nc(-c4c(N)c5c(F)cccc5[nH]c4=O)[nH]c3c2)CC1
The remaining activity was 92% (Wee1-like protein kinase (WEE1, Homo sapiens, UniProt P30291)).
For Serine/threonine-protein kinase Nek1 (NEK1, Homo sapiens, UniProt Q96PY6): remaining activity read 64.3%.
For Activin receptor type-1B (ACVR1B, Homo sapiens, UniProt P36896): remaining activity read 98.8%.
The remaining activity was 56% (Tyrosine-protein kinase FRK (FRK, Homo sapiens, UniProt P42685)).
It gave 24.3% for remaining activity (Tyrosine-protein kinase ABL2 (ABL2, Homo sapiens, UniProt P42684)).
It gave 83.9% for remaining activity (Tyrosine-protein kinase JAK3 (JAK3, Homo sapiens, UniProt P52333)).
For Mitogen-activated protein kinase kinase kinase 14 (MAP3K14, Homo sapiens, UniProt Q99558): remaining activity read 110%.
It gave 91.4% for remaining activity (Casein kinase I isoform gamma-2 (CSNK1G2, Homo sapiens, UniProt P78368)).
For Casein kinase I isoform gamma-3 (CSNK1G3, Homo sapiens, UniProt Q9Y6M4): remaining activity read 94.6%.
Serine/threonine-protein kinase Nek6 (NEK6, Homo sapiens, UniProt Q9HC98) — remaining activity: 84.5%.
It gave 66% for remaining activity (Serine/threonine-protein kinase ULK3 (ULK3, Homo sapiens, UniProt Q6PHR2)).
For MAP kinase-activated protein kinase 2 (MAPKAPK2, Homo sapiens, UniProt P49137): remaining activity read 96.9%.
Macrophage-stimulating protein receptor (MST1R, Homo sapiens, UniProt Q04912) — remaining activity: 95.4%.

Sample 2 — effect on: cell-free assay; method: competition with immobilised ligand; concentration: 1 µM
Structure (SMILES): CNC(=O)Nc1ccc2c(c1)[C@@]1(CC2)OC(=O)N(CC(=O)N(Cc2ccc(F)cc2)[C@@H](C)C(F)(F)F)C1=O
For Serine/threonine-protein kinase TNNI3K (TNNI3K, Homo sapiens, UniProt Q59H18): remaining binding read 98%.
The remaining binding was 100% (Serine/threonine-protein kinase Nek4 (NEK4, Homo sapiens, UniProt P51957)).
The remaining binding was 100% (Cyclin-dependent kinase 4, with cyclin D3 (CDK4, Homo sapiens, UniProt P11802)).
It gave 87% for remaining binding (Receptor-type tyrosine-protein kinase FLT3 (FLT3, Homo sapiens, UniProt P36888, ITD)).

Sample 3 — species: human; medium: microsomes or S9; concentration: 2 µM; time: 0.5 h
`Cc1cc(-c2ccccc2)nc2c(Br)c(=O)[nH]n12` has a remaining compound of 37.3%.
For `COc1ccc(NS(=O)(=O)c2c(C)nn(-c3ccc(-c4ccccc4)nn3)c2C)cc1F`, the remaining compound was 67.1%.
The remaining compound of `CN(C(=O)c1cnc(N)nc1-c1ccccc1)C1CCCc2ccccc21` (centres unmarked) is reported as 20.3%.
The remaining compound of `Cn1ncc(C(=O)O)c1NC(=O)c1cc(Br)nn1-c1ncccc1Cl` is reported as 74.8%.
`OC1(CN2CCC(c3nnc4ccccn34)CC2)CCNC1` (centres unmarked) has a remaining compound of 65.1%.
With `Cc1nc2c(c(-c3ccc(Cl)cc3)c1CO)CN(C1CCCCC1)C2=O` the remaining compound was 73.7%.

Single results of other studies
`CC(C)n1cnc(-c2ccc(F)cc2)c1-c1ncc(C(=O)Nc2ccc(N3CCN(C)CC3)cc2)[nH]1` — result for “patients with back pain”: 0% (human, idiopathic pulmonary fibrosis; 30 mg once daily, trial, treatment-emergent).
`O=C1CCC(N2Cc3cc(C4CCN(Cc5ccccc5)CC4)ccc3C2=O)C(=O)N1` (centres unmarked) gave a Tmax of 30 min (ICR mouse, male, plasma; oral, 3.0 mg/kg).
For `Cc1ccc(C(=O)Nc2ccc(CN3CCN(C)CC3)c(C(F)(F)F)c2)cc1C#Cc1cnc2cccnn12`, the inhibition was 28% (Serine/threonine-protein kinase STK11 (STK11, Homo sapiens, UniProt Q15831); cell-free assay; 1 µM).
